Measurements gathered from unrelated publications.
Compare with care: the assays were run in different laboratories. ≈ marks a conversion by molar mass, not a printed value.

SMILES	organism	assay	test system	setting	scale	quantity	result
Nc1ncnc2c1ncn2[C@@H]1O[C@@H]2COP(=O)(O)O[C@H]3[C@@H](O)[C@H](n4cnc5c(=O)[nH]cnc54)O[C@@H]3COP(=O)(O)O[C@H]2[C@H]1O	West Nile virus	RNA sequencing, refers to: extracellular matrix degradation R-HSA-1474228	HFF-1 cells	concentration not given, downregulated pathway	reference: WNV-infected untreated cells	fold enrichment	4.71
CNC(=O)c1cc(Cl)cc(C)c1NC(=O)c1cc(Br)nn1-c1ncccc1Cl	Plutella xylostella	–	Raphanus sativus field	25 ppm, 168 h, 5% water-dispersible granule	–	larval survival	8.6%
COc1cc(NC(=O)Cn2ccc3cc(F)c(-c4cnn(C)c4)cc32)cc(OC)c1OC	Plasmodium falciparum	parasite growth	Dd2-B2 parent	–	–	IC50	4.7 nM
CCCCc1ccc(CNc2nc(N(C)C)nc(N(C)C)c2/N=N/c2ccc(Cl)cc2)cc1	Plutella xylostella	leaf dipping	–	6.25 mg/L	–	mortality	40%
COc1ccc2c(ccc3oc([N+](=O)[O-])cc32)c1	Mycobacterium marinum	REMA	ATCC BAA-535	–	–	MIC90	0.016 µg/mL (≈ 0.0658 µM)
CN1CCN(S(=O)(=O)c2cc([N+](=O)[O-])ccc2N(CCOS(C)(=O)=O)CCOS(C)(=O)=O)CC1	Homo sapiens	cell viability, resazurin or CellTiter-Glo	sample D BCP-ALL PDX cells, ex vivo	48 h	–	IC50	23600 nM
O=C(NNc1ccc(Cl)c(Cl)c1)c1nnc(CC23CC4CC(CC(C4)C2)C3)o1	Botryosphaeria dothidea	fungal growth, inhibitor	–	50 µg/mL	–	inhibition	100%
CS(=O)(=O)CCCn1c(Cn2c(=O)n(CC(F)(F)F)c3ccncc32)cc2cc(Cl)ccc21	respiratory syncytial virus	RT-qPCR	hospitalized infants 1-24 months, nasal swab	oral, 6, 4.5 or 3 mg/kg daily, day 5, mid dose by age cohort	reference: placebo	LS mean difference vs placebo	-0.3 log10 copies/mL
CC[C@H](C)[C@H](NC(=O)[C@H](C)NC(=O)[C@H](CCCCN)NC(=O)[C@H](CC(C)C)NC(=O)[C@H](C)NC(=O)[C@@H](NC(=O)[C@H](Cc1c[nH]cn1)NC(=O)[C@H](CC(C)C)NC(=O)[C@@H](NC(=O)[C@@H](NC(=O)[C@H](CCCCN)NC(=O)[C@H](C)NC(=O)[C@H](C)NC(=O)[C@H](CO)NC(=O)[C@H](CCCCN)NC(=O)[C@H](Cc1ccccc1)NC(=O)[C@@H](NC(=O)[C@H](CCCCN)NC(=O)[C@H](CC(C)C)NC(=O)[C@H](Cc1ccccc1)NC(=O)[C@H](CO)NC(=O)[C@H](CCCCN)NC(=O)[C@H](Cc1c[nH]c2ccccc12)NC(=O)[C@H](CCCCN)NC(C)=O)[C@@H](C)O)[C@@H](C)O)C(C)C)[C@@H](C)O)C(=O)N[C@@H](CO)C(=O)N[C@@H](CO)C(N)=O	Klebsiella pneumoniae	–	–	40 strains	–	MBC50	8 µg/mL (≈ 2.73 µM)
COC(=O)[C@@H](N)COP1(=O)CO[C@@H](Cn2cnc3c(N)ncnc32)CO1 (stereo partly drawn)	human cytomegalovirus	viral replication	–	–	–	IC50	500 nM
CC[C@H](C)[C@H](NC(=O)[C@H](Cc1ccccc1)NC(=O)[C@@H](NC(=O)[C@H](CO)NC(=O)[C@@H](N)CCCNC(=N)N)[C@@H](C)CC)C(=O)N[C@@H](CCCCN)C(=O)N[C@@H](Cc1ccc(O)cc1)C(=O)N[C@@H](CCCCN)C(=O)N[C@@H](CO)C(=O)N[C@@H](CCCCN)C(=O)N1CCC[C@H]1C(=O)N[C@@H](Cc1ccccc1)C(=O)N[C@@H](CS)C(=O)N[C@@H](CCC(=O)O)C(=O)N[C@@H](CCCCN)C(=O)N[C@@H](CC(C)C)C(=O)N[C@@H](CC(C)C)C(=O)N[C@@H](CO)C(=O)N[C@@H](Cc1c[nH]c2ccccc12)C(=O)N[C@H](C(=O)N[C@@H](CCCCN)C(=O)N[C@@H](CO)C(=O)O)C(C)C	Micrococcus luteus	–	NCTC 2665	–	–	MBC	8 µg/mL (≈ 2.98 µM)
Cl.N=C(CC(O)c1cc2c(F)cc(F)cc2c2cc(C(F)(F)F)ccc12)Nc1ccc(Br)cc1 (stereo not drawn)	Plasmodium berghei	Peters suppressive test	ANKA, infected mice	oral, 4 x 30 mg/kg, day 4	reference: untreated control	parasitemia reduction	99.6%

Some of these lines once more:
SMILES	organism	assay	test system	setting	scale	quantity	result
CC[C@H](C)[C@H](NC(=O)[C@H](C)NC(=O)[C@H](CCCCN)NC(=O)[C@H](CC(C)C)NC(=O)[C@H](C)NC(=O)[C@@H](NC(=O)[C@H](Cc1c[nH]cn1)NC(=O)[C@H](CC(C)C)NC(=O)[C@@H](NC(=O)[C@@H](NC(=O)[C@H](CCCCN)NC(=O)[C@H](C)NC(=O)[C@H](C)NC(=O)[C@H](CO)NC(=O)[C@H](CCCCN)NC(=O)[C@H](Cc1ccccc1)NC(=O)[C@@H](NC(=O)[C@H](CCCCN)NC(=O)[C@H](CC(C)C)NC(=O)[C@H](Cc1ccccc1)NC(=O)[C@H](CO)NC(=O)[C@H](CCCCN)NC(=O)[C@H](Cc1c[nH]c2ccccc12)NC(=O)[C@H](CCCCN)NC(C)=O)[C@@H](C)O)[C@@H](C)O)C(C)C)[C@@H](C)O)C(=O)N[C@@H](CO)C(=O)N[C@@H](CO)C(N)=O	Klebsiella pneumoniae	–	–	40 strains	–	MBC50	8 µg/mL (≈ 2.73 µM)
